Results collected from several papers.
Numbered parts are unrelated; each lists some results of a single study. Values joined by “and” are separate records of one study, mostly repeats; a detail may differ.
Chain of UniProt P00519 (whole entry, unmodified, looked up): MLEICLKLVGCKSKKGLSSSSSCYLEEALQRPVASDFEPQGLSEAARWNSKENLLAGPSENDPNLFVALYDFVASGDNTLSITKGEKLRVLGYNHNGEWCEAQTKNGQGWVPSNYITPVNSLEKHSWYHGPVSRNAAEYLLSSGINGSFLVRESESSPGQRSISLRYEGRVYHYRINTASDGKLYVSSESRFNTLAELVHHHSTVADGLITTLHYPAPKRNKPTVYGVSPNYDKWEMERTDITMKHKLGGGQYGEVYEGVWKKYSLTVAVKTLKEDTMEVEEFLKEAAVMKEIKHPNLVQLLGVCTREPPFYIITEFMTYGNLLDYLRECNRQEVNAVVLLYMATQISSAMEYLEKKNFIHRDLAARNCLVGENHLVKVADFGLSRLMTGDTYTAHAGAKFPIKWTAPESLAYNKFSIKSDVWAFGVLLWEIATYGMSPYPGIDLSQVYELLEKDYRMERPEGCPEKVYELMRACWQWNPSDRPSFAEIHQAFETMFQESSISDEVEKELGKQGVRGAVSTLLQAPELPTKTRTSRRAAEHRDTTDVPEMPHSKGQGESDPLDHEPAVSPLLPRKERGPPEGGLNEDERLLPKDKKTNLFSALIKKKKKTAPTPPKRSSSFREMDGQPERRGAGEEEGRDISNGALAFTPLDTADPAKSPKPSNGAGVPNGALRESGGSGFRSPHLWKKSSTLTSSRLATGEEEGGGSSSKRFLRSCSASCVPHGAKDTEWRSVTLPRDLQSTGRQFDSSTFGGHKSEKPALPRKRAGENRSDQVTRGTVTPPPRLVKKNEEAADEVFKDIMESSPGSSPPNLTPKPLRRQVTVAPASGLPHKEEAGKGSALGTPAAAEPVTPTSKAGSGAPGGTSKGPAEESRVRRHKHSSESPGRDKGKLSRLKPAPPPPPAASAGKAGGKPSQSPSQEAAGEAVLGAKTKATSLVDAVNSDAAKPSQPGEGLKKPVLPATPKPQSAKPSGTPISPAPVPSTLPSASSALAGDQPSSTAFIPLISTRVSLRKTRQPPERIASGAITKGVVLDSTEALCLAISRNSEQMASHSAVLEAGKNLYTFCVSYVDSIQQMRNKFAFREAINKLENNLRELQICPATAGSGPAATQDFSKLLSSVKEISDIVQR
Chain of UniProt Q9UEE5 (whole entry, looked up): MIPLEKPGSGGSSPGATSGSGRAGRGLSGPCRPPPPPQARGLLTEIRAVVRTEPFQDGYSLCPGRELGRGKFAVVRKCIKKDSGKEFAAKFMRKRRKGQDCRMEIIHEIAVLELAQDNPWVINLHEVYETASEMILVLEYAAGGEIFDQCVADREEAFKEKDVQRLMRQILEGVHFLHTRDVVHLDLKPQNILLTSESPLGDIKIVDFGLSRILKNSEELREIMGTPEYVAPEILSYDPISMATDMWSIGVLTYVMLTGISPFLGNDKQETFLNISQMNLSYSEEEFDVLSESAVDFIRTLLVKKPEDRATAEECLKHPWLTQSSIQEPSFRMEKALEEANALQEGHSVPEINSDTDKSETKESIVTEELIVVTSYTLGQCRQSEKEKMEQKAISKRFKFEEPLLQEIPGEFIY
Chain of UniProt O43283 (whole entry, looked up): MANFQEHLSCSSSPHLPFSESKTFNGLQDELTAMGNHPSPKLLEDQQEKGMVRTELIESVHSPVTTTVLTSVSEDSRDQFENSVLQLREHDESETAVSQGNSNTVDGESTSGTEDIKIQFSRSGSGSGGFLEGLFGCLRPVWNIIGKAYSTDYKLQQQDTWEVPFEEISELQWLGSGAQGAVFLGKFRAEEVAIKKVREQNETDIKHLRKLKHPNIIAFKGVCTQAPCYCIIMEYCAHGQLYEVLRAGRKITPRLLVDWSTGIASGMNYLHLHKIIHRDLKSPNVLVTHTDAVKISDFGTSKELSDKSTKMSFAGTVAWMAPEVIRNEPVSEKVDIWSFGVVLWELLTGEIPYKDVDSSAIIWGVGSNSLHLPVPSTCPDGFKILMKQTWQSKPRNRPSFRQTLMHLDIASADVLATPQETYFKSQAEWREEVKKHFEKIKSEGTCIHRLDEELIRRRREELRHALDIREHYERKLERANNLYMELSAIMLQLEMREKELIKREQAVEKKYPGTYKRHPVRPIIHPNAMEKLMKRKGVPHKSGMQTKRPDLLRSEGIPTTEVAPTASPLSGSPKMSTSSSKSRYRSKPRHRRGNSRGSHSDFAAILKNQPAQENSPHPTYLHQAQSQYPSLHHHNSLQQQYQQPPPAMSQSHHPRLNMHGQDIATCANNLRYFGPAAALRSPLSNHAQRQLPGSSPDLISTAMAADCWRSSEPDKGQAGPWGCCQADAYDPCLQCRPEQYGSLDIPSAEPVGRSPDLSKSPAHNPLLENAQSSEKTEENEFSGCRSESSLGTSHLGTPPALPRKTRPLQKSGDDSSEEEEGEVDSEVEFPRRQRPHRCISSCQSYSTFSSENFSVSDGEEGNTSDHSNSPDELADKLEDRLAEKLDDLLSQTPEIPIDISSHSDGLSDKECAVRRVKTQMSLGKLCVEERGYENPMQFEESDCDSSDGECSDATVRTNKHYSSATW
Chain of UniProt P54760 (whole entry, looked up): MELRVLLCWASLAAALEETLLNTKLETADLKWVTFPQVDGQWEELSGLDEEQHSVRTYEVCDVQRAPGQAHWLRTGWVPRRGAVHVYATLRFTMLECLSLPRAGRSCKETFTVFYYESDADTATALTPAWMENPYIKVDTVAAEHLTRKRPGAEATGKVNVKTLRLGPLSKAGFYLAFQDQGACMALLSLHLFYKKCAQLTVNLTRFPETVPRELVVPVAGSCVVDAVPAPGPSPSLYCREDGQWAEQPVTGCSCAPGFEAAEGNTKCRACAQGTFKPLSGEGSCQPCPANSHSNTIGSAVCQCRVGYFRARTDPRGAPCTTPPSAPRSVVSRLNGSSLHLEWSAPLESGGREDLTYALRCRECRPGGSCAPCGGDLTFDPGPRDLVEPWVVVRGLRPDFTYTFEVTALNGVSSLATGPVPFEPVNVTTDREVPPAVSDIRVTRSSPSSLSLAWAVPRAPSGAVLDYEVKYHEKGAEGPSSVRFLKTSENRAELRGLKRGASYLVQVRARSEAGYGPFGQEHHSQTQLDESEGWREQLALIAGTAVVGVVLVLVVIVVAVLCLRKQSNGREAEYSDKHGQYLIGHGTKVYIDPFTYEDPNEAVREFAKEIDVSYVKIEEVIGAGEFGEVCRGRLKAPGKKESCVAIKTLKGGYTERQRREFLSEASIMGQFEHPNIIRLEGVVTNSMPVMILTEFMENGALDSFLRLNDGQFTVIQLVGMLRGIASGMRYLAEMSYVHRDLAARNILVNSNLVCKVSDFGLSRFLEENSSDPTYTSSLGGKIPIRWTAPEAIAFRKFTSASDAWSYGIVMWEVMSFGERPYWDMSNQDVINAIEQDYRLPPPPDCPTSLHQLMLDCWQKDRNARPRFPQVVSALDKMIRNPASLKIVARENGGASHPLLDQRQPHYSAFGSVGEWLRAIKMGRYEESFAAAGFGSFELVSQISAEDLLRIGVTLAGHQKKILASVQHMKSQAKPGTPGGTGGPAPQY
Chain of UniProt P19525 (whole entry, looked up): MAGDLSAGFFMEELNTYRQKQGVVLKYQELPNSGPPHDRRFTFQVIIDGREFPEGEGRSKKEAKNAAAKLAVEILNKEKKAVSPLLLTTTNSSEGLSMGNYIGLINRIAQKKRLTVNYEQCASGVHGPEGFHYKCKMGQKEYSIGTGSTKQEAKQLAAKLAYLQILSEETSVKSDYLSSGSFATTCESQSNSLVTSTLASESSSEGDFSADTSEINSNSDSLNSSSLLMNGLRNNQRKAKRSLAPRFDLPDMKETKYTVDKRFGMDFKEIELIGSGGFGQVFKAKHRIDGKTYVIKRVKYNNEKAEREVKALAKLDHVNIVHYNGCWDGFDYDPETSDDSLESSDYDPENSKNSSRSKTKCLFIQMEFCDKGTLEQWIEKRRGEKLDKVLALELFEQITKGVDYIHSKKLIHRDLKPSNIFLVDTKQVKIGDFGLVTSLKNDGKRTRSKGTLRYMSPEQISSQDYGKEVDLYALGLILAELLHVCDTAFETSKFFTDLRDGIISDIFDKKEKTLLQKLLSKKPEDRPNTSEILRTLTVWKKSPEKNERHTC
Chain of UniProt Q16644 (whole entry, looked up): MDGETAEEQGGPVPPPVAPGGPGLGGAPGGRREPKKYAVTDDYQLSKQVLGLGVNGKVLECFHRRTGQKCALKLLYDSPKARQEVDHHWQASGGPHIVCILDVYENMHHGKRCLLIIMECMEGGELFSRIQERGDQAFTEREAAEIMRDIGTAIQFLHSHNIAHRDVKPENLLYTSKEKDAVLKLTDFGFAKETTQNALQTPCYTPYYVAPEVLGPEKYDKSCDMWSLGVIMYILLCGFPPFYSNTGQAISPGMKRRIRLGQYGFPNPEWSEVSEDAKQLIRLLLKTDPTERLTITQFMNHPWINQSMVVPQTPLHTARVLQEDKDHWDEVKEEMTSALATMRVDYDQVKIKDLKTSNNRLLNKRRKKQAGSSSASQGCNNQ
Chain of UniProt Q8NE63 (whole entry, looked up): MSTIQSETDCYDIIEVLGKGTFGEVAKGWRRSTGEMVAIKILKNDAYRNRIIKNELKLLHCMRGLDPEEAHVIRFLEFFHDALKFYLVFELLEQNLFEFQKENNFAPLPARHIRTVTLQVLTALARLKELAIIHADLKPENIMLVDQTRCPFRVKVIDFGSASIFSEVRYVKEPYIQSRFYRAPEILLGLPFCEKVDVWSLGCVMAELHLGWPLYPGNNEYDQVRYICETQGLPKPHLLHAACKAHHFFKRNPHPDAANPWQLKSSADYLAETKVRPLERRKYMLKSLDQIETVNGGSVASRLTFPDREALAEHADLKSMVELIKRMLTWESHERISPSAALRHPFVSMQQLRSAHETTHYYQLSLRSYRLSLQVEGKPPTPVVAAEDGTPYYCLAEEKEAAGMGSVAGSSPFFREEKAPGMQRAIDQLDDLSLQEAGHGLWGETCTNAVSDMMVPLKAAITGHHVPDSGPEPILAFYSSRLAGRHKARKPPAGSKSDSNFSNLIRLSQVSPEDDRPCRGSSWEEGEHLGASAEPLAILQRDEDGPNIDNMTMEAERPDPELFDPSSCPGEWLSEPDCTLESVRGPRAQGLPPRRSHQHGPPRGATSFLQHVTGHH

Block 1
Cell line: mouse MPNST tumor cells
Method: high-content immunofluorescence imaging
Measured: nuclear SOX9
Tested at: 10 µM
Time: 12 h
Setting: mean of 2 replicates
Baseline: DMSO control
Direction: higher = more nuclear SOX9
Measurement: nuclear SOX9 intensity
Structure (SMILES) = Nc1ccc(-c2nc3cc(Oc4ccc(Oc5ccc6[nH]c(-c7ccc(N)cc7)nc6c5)cc4)ccc3[nH]2)cc1; result = 211 % of DMSO
Structure (SMILES) = CCN(CC)CCNC(=O)c1cc(Br)c(N)cc1OC; result = 96.7 % of DMSO
Structure (SMILES) = CC1(C)CCC(C)(C)c2cc(C(=O)Nc3ccc(C(=O)O)cc3)ccc21; result = 118 % of DMSO
Structure (SMILES) = NCCc1ccc(O)c(O)c1; result = 95.2 % of DMSO and 88.8 % of DMSO
Structure (SMILES) = CN(C)CCn1cc(S(=O)(=O)c2cccc(F)c2)c2cccnc21; result = 104 % of DMSO
Structure (SMILES) = CC(=O)SCC(Cc1ccccc1)C(=O)NCC(=O)OCc1ccccc1 (stereo not shown); result = 104 % of DMSO
Structure (SMILES) = CCCC[C@@H](C=O)NC(=O)[C@H](CC(C)C)NC(=O)OCc1ccccc1; result = 98.2 % of DMSO
Structure (SMILES) = CC(COc1ccccc1)N(CCCl)Cc1ccccc1 (stereo not shown); result = 103 % of DMSO
Structure (SMILES) = CC(C)Oc1ccc2c(=O)c(-c3ccccc3)coc2c1; result = 105 % of DMSO
Structure (SMILES) = COc1c(C)cnc(Cn2cc(C#CCC(C)(C)O)c3c(Cl)nc(N)nc32)c1C; result = 59.6 % of DMSO

Block 2
Compound: CCCCN(CCCC)C(=O)CN1C[C@@H](c2cc(OC)c3c(c2)OCO3)[C@H](C(=O)O)[C@H]1CC(C)(C)CCC
Tested at: 1 µM
Measurement: remaining binding
target = CDKL3 (Homo sapiens, UniProt Q8IVW4); observed = cell-free assay; method = competition with immobilised ligand; result = 83.6%
target = BTK (Homo sapiens, UniProt Q06187); observed = cell-free assay; method = competition with immobilised ligand; result = 100%
target = MAPK8 (Homo sapiens, UniProt P45983); observed = cell-free assay; method = competition with immobilised ligand; result = 92.1%
target = EGFR (Homo sapiens, UniProt P00533, L858R); observed = cell-free assay; method = competition with immobilised ligand; result = 100%
target = Tyrosine-protein kinase ABL1, phosphorylated (ABL1, Homo sapiens, UniProt P00519, F317I); observed = cell-free assay; method = competition with immobilised ligand; result = 94.3%
target = Aurora kinase A (AURKA, Homo sapiens, UniProt O14965); observed = cell-free assay; method = competition with immobilised ligand; result = 90.2%
target = FRK (Homo sapiens, UniProt P42685); observed = cell-free assay; method = competition with immobilised ligand; result = 100%
target = RET (Homo sapiens, UniProt P07949, M918T); observed = cell-free assay; method = competition with immobilised ligand; result = 100%
target = PDGFRB (Homo sapiens, UniProt P09619); observed = cell-free assay; method = competition with immobilised ligand; result = 99%
target = SIK1 (Homo sapiens, UniProt P57059); method = competition binding; result = 100%
target = EIF2AK2 (Homo sapiens, UniProt P19525); observed = cell-free assay; method = competition with immobilised ligand; result = 100%
target = SBK1 (Homo sapiens, UniProt Q52WX2); observed = cell-free assay; method = competition with immobilised ligand; result = 90.6%
target = MAP3K13 (Homo sapiens, UniProt O43283); observed = cell-free assay; method = competition with immobilised ligand; result = 100%

Block 3
Compound: CCOc1cc2ncnc(Nc3cccc(Br)c3)c2cc1OCC
Observed: enzyme activity
Action: inhibitor
Tested at: 0.5 µM
Baseline: control
Measurement: remaining activity
target = HIPK2 (Homo sapiens, UniProt Q9H2X6); result = 96.8%
target = HIPK4 (Homo sapiens, UniProt Q8NE63); result = 89.9%
target = STK16 (Homo sapiens, UniProt O75716); result = 98.4%
target = ABL1 (Homo sapiens, UniProt P00519); result = 64.3%
target = PHKG1 (Homo sapiens, UniProt Q16816); result = 84.2%
target = Cyclin-dependent kinase 1, with cyclin B (CDK1, Homo sapiens, UniProt P06493); result = 80.8%
target = SRMS (Homo sapiens, UniProt Q9H3Y6); result = 85.7%
target = AXL (Homo sapiens, UniProt P30530); result = 89.9%
target = Cyclin-dependent kinase 6, with cyclin D3 (CDK6, Homo sapiens, UniProt Q00534); result = 104%
target = MAPKAPK3 (Homo sapiens, UniProt Q16644); result = 87.4%
target = MAP4K4 (Homo sapiens, UniProt O95819); result = 67%
target = RPS6KA6 (Homo sapiens, UniProt Q9UK32); result = 93.3%
target = STK17A (Homo sapiens, UniProt Q9UEE5); result = 98.9%
target = CAMK2B (Homo sapiens, UniProt Q13554); result = 98.8%
target = TSSK2 (Homo sapiens, UniProt Q96PF2); result = 104%
target = EPHB1 (Homo sapiens, UniProt P54762); result = 73.8%
target = EPHB4 (Homo sapiens, UniProt P54760); result = 43%
target = EPHA4 (Homo sapiens, UniProt P54764); result = 75.1%
target = WNK3 (Homo sapiens, UniProt Q9BYP7); result = 96.5%
target = PDPK1 (Homo sapiens, UniProt O15530); result = 96.8%
target = RPS6KA5 (Homo sapiens, UniProt O75582); result = 95.8%
target = DYRK3 (Homo sapiens, UniProt O43781); result = 98.5%
target = BLK (Homo sapiens, UniProt P51451); result = 74.9%

Block 4
Compound: C[C@@H]1OCC2(CCN(c3cnc(Sc4ccnc(N)c4Cl)c(N)n3)CC2)[C@@H]1N
Method: immunoblot
Measured: phospho-ERK
Host: Mus musculus
Baseline: DMSO
Measurement: ERK phosphorylation
cells = Ba/F3 KRAS Q61R; tested at = 1 µM; result = 102%
cells = Ba/F3 NRAS Q61R; tested at = 1 µM; result = 132%
cells = Ba/F3 NRAS G12C; tested at = 1 µM; result = 74%
cells = Ba/F3 NRAS Q61R; tested at = 0.1 µM; result = 119%
cells = Ba/F3 KRAS G12C; tested at = 0.1 µM; result = 69%
cells = Ba/F3 KRAS Q61R; tested at = 0.1 µM; result = 111%

Excerpt of the above (block 3):
target = HIPK2 (Homo sapiens, UniProt Q9H2X6); result = 96.8%
target = HIPK4 (Homo sapiens, UniProt Q8NE63); result = 89.9%
target = STK16 (Homo sapiens, UniProt O75716); result = 98.4%
target = ABL1 (Homo sapiens, UniProt P00519); result = 64.3%
target = PHKG1 (Homo sapiens, UniProt Q16816); result = 84.2%
target = Cyclin-dependent kinase 1, with cyclin B (CDK1, Homo sapiens, UniProt P06493); result = 80.8%
target = SRMS (Homo sapiens, UniProt Q9H3Y6); result = 85.7%
target = AXL (Homo sapiens, UniProt P30530); result = 89.9%
